{"data": "Published values pooled from the literature", "TRPM8": "Transient receptor potential cation channel subfamily M member 8 (TRPM8, Homo sapiens, UniProt Q7Z2W7)", "ERN1": "Serine/threonine-protein kinase/endoribonuclease IRE1 (ERN1, Homo sapiens, UniProt O75460)", "note": "± gives the spread as reported.", "chain of UniProt Q7Z2W7 (whole entry, looked up)": "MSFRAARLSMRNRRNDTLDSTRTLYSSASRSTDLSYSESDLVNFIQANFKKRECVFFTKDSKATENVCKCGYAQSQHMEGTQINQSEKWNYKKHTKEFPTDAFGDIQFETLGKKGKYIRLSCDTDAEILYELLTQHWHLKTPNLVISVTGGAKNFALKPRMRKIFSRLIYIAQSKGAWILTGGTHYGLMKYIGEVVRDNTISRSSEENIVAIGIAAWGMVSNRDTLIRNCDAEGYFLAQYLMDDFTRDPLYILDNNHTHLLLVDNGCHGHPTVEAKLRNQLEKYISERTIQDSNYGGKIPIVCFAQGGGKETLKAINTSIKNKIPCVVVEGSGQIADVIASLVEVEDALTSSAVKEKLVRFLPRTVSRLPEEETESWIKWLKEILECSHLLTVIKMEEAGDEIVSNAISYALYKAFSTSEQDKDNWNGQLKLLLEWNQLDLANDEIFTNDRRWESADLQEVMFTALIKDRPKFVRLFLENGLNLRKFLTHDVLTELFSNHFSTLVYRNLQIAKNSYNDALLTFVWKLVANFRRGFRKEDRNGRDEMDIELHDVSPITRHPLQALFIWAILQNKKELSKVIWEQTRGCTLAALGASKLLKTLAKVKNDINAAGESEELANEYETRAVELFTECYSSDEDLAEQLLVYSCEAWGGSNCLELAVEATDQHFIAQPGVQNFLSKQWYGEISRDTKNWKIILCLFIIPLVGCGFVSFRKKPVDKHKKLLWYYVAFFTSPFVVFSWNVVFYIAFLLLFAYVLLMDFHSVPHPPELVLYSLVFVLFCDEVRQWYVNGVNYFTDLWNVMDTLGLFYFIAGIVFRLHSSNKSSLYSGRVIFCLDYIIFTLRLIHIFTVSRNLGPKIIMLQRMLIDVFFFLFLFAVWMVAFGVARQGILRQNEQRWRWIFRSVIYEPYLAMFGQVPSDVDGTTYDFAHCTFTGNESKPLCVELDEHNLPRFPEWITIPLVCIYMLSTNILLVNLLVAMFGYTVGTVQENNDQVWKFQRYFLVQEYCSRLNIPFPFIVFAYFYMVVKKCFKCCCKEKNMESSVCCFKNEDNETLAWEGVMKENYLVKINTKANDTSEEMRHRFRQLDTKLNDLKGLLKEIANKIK", "chain of UniProt O75460 (whole entry, looked up)": "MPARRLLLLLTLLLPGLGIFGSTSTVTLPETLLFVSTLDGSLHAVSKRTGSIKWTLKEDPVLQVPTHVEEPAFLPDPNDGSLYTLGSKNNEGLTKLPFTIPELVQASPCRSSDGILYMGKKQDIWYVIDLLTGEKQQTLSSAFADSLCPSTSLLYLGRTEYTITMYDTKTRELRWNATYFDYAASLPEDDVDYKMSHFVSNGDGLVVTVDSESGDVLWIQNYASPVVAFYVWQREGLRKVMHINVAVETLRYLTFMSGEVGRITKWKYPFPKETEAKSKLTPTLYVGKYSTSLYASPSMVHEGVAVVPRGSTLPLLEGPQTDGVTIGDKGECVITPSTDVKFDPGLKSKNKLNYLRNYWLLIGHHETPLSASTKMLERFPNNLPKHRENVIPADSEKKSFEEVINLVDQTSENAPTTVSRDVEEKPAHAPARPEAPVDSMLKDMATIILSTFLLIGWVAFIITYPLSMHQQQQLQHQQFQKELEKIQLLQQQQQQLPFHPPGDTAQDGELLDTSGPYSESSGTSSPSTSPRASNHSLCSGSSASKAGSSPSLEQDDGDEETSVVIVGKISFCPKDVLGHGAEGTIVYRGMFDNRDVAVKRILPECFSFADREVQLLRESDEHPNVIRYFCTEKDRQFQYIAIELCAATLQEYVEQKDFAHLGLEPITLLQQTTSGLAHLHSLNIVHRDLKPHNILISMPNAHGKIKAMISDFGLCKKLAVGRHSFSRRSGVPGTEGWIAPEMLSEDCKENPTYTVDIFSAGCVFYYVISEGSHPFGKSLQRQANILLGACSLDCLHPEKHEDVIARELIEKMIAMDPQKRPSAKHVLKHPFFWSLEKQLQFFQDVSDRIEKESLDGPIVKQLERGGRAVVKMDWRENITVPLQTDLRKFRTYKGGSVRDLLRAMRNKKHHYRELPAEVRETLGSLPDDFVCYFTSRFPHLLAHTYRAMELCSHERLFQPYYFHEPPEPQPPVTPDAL", "chain of UniProt Q5HHB9 (whole entry, looked up)": "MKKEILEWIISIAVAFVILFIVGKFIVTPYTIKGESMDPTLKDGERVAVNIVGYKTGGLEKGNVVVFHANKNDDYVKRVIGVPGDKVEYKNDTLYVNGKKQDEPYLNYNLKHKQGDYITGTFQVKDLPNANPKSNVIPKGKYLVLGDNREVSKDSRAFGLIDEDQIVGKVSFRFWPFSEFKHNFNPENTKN", "chain of UniProt P06493 (whole entry, looked up)": "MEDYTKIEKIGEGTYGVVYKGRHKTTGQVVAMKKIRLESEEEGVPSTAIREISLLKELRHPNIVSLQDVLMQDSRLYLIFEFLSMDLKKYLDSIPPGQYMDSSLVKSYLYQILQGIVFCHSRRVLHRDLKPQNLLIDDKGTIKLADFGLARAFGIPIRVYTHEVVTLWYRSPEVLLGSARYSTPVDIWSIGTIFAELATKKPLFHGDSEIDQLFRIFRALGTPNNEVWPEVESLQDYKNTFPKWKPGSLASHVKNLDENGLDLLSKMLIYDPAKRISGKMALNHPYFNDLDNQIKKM", "chain of UniProt P06239 (whole entry, looked up)": "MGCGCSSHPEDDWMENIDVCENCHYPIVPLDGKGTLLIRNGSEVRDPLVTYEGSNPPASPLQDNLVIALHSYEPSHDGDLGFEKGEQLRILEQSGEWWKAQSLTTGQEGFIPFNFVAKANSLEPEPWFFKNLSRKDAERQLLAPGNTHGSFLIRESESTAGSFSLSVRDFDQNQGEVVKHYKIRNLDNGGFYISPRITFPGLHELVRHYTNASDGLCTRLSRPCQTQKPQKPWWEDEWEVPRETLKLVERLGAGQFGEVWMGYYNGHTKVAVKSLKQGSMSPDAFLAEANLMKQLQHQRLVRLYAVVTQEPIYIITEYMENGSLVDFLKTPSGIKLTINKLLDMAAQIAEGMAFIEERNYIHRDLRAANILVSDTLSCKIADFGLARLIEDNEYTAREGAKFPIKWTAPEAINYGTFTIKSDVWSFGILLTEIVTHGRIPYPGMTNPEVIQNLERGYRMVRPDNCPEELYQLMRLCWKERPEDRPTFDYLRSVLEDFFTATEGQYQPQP", "chain of UniProt Q9UEE5 (whole entry, looked up)": "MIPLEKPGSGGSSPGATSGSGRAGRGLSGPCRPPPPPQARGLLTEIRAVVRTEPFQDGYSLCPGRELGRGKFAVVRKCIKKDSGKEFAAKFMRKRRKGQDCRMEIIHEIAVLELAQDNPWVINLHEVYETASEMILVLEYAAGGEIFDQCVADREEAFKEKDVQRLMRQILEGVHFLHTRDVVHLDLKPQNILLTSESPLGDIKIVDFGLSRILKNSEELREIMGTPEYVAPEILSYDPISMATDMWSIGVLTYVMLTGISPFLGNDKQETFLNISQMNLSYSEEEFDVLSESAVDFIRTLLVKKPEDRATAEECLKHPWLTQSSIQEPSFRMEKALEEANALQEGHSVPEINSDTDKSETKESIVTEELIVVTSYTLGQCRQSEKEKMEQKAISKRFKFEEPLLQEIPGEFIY"}
{"SMILES": "COc1cc2ncnc(Nc3ccc(O)c(Br)c3)c2cc1OC", "target": "TRPM8", "test": "antagonist", "system": "HEK293", "conditions": "5 µM", "scale": "reference: control", "remaining activity": "78.5 ± 7.4%"}
{"SMILES": "O=C(O)c1ccc(Nc2ncc3c(n2)-c2ccc(Cl)cc2C(c2c(F)cccc2F)=NC3)cc1", "target": "human PDGFRα(h)", "test": "kinase activity", "conditions": "1 µM", "remaining activity": "110%"}
{"SMILES": "Nc1nc(Nc2ccc(S(N)(=O)=O)cc2)nn1C(=S)Nc1c(F)cccc1F", "target": "TRPM8", "test": "antagonist", "system": "HEK293", "conditions": "5 µM", "scale": "reference: control", "remaining activity": "92 ± 12.9%"}
{"SMILES": "COc1cc(Nc2ncc3c(n2)-c2ccc(Cl)cc2C(c2c(F)cccc2OC)=NC3)ccc1C(=O)O", "target": "AKT1", "test": "kinase activity", "conditions": "1 µM", "remaining activity": "106%"}
{"SMILES": "COc1cc(F)ccc1-c1ncnc(Nc2cccc(C[S@](C)(=N)=O)c2)n1", "target": "STK17A (Homo sapiens, UniProt Q9UEE5)", "test": "kinase activity", "conditions": "10 µM, with: 10 µM ATP", "remaining activity": "59%"}
{"SMILES": "O=C(NC1CCC1)c1ccc2nc(-c3cccc(NS(=O)(=O)NCCN4CCCCC4)c3)cn2c1", "target": "ERN1", "test": "enzyme activity", "conditions": "10 µM", "remaining activity": "100%"}
{"SMILES": "O=C1NC(=O)c2c1c1c3ccccc3[nH]c1c1[nH]c3cc(Br)ccc3c21", "target": "TRPM8", "test": "antagonist", "system": "HEK293", "conditions": "5 µM", "scale": "reference: control", "remaining activity": "96.4 ± 11%"}
{"SMILES": "COc1cc(-c2cncc3c2CN(C)Cc2cc(N4CCNCC4)ccc2-3)cc(OC)c1OC", "target": "ERN1", "test": "kinase activity", "conditions": "1 µM, human enzyme, with: ATP 10 µM", "scale": "reference: DMSO control", "remaining activity": "100%"}
{"SMILES": "C=CC(=O)N1CCC[C@@H](n2nc(-c3ccc(Oc4ccccc4)cc3)c3c(N)ncnc32)C1", "target": "LCK (Homo sapiens, UniProt P06239)", "conditions": "0.1 µM", "remaining activity": "103%"}
{"SMILES": "Cc1nc2cc3nc(-c4cccs4)cnc3cc2n1C", "target": "TRPM8", "test": "antagonist", "system": "HEK293", "conditions": "5 µM", "scale": "reference: control", "remaining activity": "82.7 ± 8.2%"}
{"SMILES": "Cc1cc(Nc2cc(N3CCN(C)CC3)nc(Sc3ccc(NC(=O)C4CC4)cc3)n2)[nH]n1", "target": "Cyclin-dependent kinase 1, with cyclin B (CDK1, Homo sapiens, UniProt P06493)", "test": "kinase activity, KinaseProfiler", "conditions": "0.03 µM, species human", "scale": "reference: control", "remaining activity": "98%"}
{"SMILES": "COc1ccc(F)cc1C(=O)NCc1ccc(-c2nn([C@@H](C)C(F)(F)F)c(N)c2C(N)=O)cc1", "target": "FLT3 (Homo sapiens, UniProt P36888)", "test": "kinase activity, inhibitor, HotSpot radiometric", "conditions": "100 nM, with: ATP 10 µM", "remaining activity": "83.2 ± 0.5%"}
{"SMILES": "O=C(Nc1ccc(C(=O)Nc2ccccc2)cc1)Nc1ccc(Cl)c(C(F)(F)F)c1", "target": "Signal peptidase IB (spsB, Staphylococcus aureus, UniProt Q5HHB9)", "test": "peptidase activity, activator, FRET peptide cleavage", "system": "Staphylococcus aureus, membranes", "conditions": "100 µM", "scale": "reference: DMSO", "remaining activity": "99.4%"}
